Measured values collected from several papers.
Protocols differ between the studies behind these lines. “And” joins repeats or separate records; there may be more than shown. ± gives the spread as reported.

| Compound | test | test system | setting | scale | endpoint | value |
| --- | --- | --- | --- | --- | --- | --- |
| Cc1nc(Nc2ccc(CC(=O)O)cc2)nc(Nc2ccc(F)c(C(F)(F)F)c2)c1C |  | mice, chronic ethanol plus binge | intraperitoneal, 0.3 mg/kg daily, ethanol diet 4 weeks, dosed last two | baseline: vehicle | serum ALT | decreased |
| C/C=C1\NC(=O)C(C(C)O)NC(=O)C(CCCN)NC(=O)C(CCO)NC(=O)C(CCN)NC(=O)C(CCN)NC(=O)C(NC(=O)CC(O)CCCCCCCCCCC)COC(=O)C(C(O)CCl)NC(=O)C(C(O)C(=O)O)NC1=O (stereo not drawn) | calcein leakage | DOPC/DOPG/CHOL liposomes | concentration not given, with: 40 mM CaCl2 |  | maximum fusion | 75 ± 1% |
| Nc1ncnc2c1ncn2[C@@H]1O[C@H](COP(=O)(O)OS(=O)(=O)O)[C@@H](O)[C@H]1O | binding, equilibrium dialysis LC-MS |  | 5 µM, thermostabilized A2AR-BRIL construct | baseline: no-protein control, direction not given | z-scored log2 fold change | 0.214 |
| C[C@]12CC[C@H](O)C[C@H]1CC[C@@H]1[C@@H]2CC[C@]2(C)[C@@H](c3ccc(=O)oc3)CC[C@]12O |  | female nude mouse LCC2 xenograft | 1.0 mg/kg, day 7, tamoxifen-resistant |  | tumour volume | 43.5 mm3 and 50.6 mm3 and 32.5 mm3 and 24.1 mm3 and 28.3 mm3 and 42.8 mm3 and 65 mm3 |
| CCCCCCCCCCCCCCCC(=O)N[C@H]1C[C@@H](O)[C@@H](O)NC(=O)[C@@H]2[C@@H](O)[C@@H](C)CN2C(=O)[C@H]([C@@H](C)O)NC(=O)[C@H]([C@H](O)[C@@H](O)c2ccc(O)cc2)NC(=O)[C@@H]2C[C@@H](O)CN2C(=O)[C@H]([C@@H](C)O)NC1=O | calcein leakage | DOPC/CHOL liposomes | concentration not given, with: 20 wt% PEG-8000 |  | maximum fusion | 9 ± 3% |
| CCCCC1(CCCC)CN(c2ccccc2)c2cc(SC)c(OCC(=O)N[C@@H](C(=O)NCC(=O)O)c3ccccc3)cc2S(=O)(=O)C1 | item: HDL cholesterol | human, serum | 20 mg once daily, day 1 |  | serum HDL-C | 51.3 mg/dL |
| CC(=O)c1c(C)c2cnc(Nc3ccc(C4CCN(CCS(C)(=O)=O)CC4)cn3)nc2n(C2CCCC2)c1=O | RECIST v1.1 | HR+/HER2- advanced breast cancer patients | dose not given, phase Ib all arms pooled |  | best response partial response | 39.5% |
| [131I-].[Na+] |  | hyperthyroidism patients | 185 MBq, long-term follow-up |  | patients with recurrence | ~2.8% |
| CC[C@H](C)[C@@H]1NC(=O)[C@@H]2CCCN2C(=O)[C@H](CC(C)C)NC(=O)[C@H](CC(C)C)NC(=O)CNC(=O)[C@@H](NC(=O)[C@@H](NC(=O)[C@H](CC(=O)O)NC(=O)CNC(=O)[C@@H](NC(=O)[C@H](C)NC(=O)CNC(=O)[C@H](CCCCN)NC(=O)[C@H](CC(C)C)NC(=O)[C@H](CC(C)C)NC(=O)[C@H](CCCCN)NC(=O)CNC(=O)[C@@H](NC(=O)[C@@H](N)CC(C)C)C(C)C)C(C)C)C(C)C)CSSC[C@@H](C(=O)O)NC1=O | RNA-seq, item: Cd74 | mouse, traumatic brain injury model, frontal cortex and hippocampus | dose not given | baseline: TBI alone | log2 fold change | -2.38 |
| Clc1cc2c(cc1Cl)Oc1cc(Cl)c(Cl)cc1O2 | RNA-Seq, item: Cyp4a1 | female Sprague-Dawley rat, liver | dose not given | baseline: vehicle | mRNA level | 2.3 fold |
| CNC(=O)CC1C(=O)N(C2CCN(C3CCC(C(C)C)CC3)CC2)c2ccccc21 (stereo not drawn) |  | conscious Sprague-Dawley rat | intravenous bolus, 100 nmol/kg |  | peak decrease in mean arterial pressure | -57 ± 15 mmHg |
| CS(=O)(=O)c1ccc(-c2nnc(/C=C/c3nnc(-c4ccc(C#N)cc4)o3)n2-c2ccccc2Cl)nc1 | RNA-seq GSEA, item: FALLER_ENTEROCYTE_MOUSE | organoids, small intestinal, Apc Q1405X, mouse | dose not given, 3 days, knockout organoids | baseline: DMSO, direction not given | normalized enrichment score | 2.99 |
| CCCc1nn(C)c2c(=O)[nH]c(-c3cc(S(=O)(=O)N4CCN(C)CC4)ccc3OCC)nc12 |  | human patients on drug, serum or plasma | dose not given, on:off matching 1:5 | baseline: off-drug patients, 5.91 mg/dL | mean serum uric acid | 6.97 mg/dL |
| N.N.[Cl][Pt][Cl] | western blot, item: GLUL, CPS1, GGT1, SLC1A5 | SGC-7901 resistant to compound, BALB/c nude mouse xenograft, tumour tissue | dose not given, 21 days | baseline: vehicle | protein expression | decreased |
| O=C1OC[C@@H](O)[C@H]1O | binding, equilibrium dialysis LC-MS |  | 5 µM, thermostabilized A2AR-BRIL construct | baseline: no-protein control, direction not given | z-scored log2 fold change | 1.15 |
| CC(C)(O)c1cnc2ncc(-c3ccc(F)c(-c4c(F)cccc4C#N)c3)n2n1 | midazolam self-administration decrease, progressive-ratio schedule | rhesus monkey | intravenous, with: midazolam 0.056 mg/kg/injection | baseline: vehicle | minimum effective dose | 0.3 mg/kg |
| C=CC(=O)Nc1cc(Nc2ncc(Cl)c(Nc3ccccc3C(=O)C(=O)N(C)C)n2)c(OC)cc1N1CCN(C)CC1 | RECIST v1.1 best response | human EGFR T790M NSCLC | oral, 100 mg/day, per-protocol set |  | patients with complete response | 0% |
| CN1CCN(S(=O)(=O)c2cc([N+](=O)[O-])ccc2N(CCOS(C)(=O)=O)CCOS(C)(=O)=O)CC1 |  | NSG mice, sample DC PDX | intraperitoneal, 25 mg/kg weekly x3 | baseline: treated over vehicle | EFS ratio (T/C) | > 8.6 |
| C[C@H]1O[C@@H](O[C@H]2CC[C@@]3(C)[C@@H](CC[C@]4(C)[C@@H]3C=C[C@]35OC[C@@]6(CCC(C)(C)C[C@H]63)[C@@H](O)C[C@]54C)[C@]2(C)CO)[C@H](O)[C@@H](O[C@@H]2O[C@H](CO)[C@@H](O)[C@H](O)[C@H]2O)[C@H]1O | Western blot, item: mTOR | mouse, AAV8-TBG-Null control vector, liver | dose not given, high dose, unit not given, with: ethanol | baseline: β-actin | protein level | 0.47 and 0.618 and 0.751 |
| Cc1cn(-c2cc(NC(=O)c3ccc(C)c(Nc4nccc(-c5cccnc5)n4)c3)cc(C(F)(F)F)c2)cn1 | item: NPI caregiver distress score | human | dose not given, between 12 and 6 months, unit not given | baseline: placebo | mean difference in change | 0 |
| C[C@H](NC(=O)c1c(C(F)F)nn(C)c1Oc1cccc(C(F)(F)F)c1)c1ccc(C(=O)O)cc1 |  | human, advanced tumours | 125 mg |  | median overall survival | 4.3 months |

Some of these lines once more:
| Compound | test | test system | setting | scale | endpoint | value |
| --- | --- | --- | --- | --- | --- | --- |
| C[C@]12CC[C@H](O)C[C@H]1CC[C@@H]1[C@@H]2CC[C@]2(C)[C@@H](c3ccc(=O)oc3)CC[C@]12O |  | female nude mouse LCC2 xenograft | 1.0 mg/kg, day 7, tamoxifen-resistant |  | tumour volume | 43.5 mm3 and 50.6 mm3 and 32.5 mm3 and 24.1 mm3 and 28.3 mm3 and 42.8 mm3 and 65 mm3 |
| CNC(=O)CC1C(=O)N(C2CCN(C3CCC(C(C)C)CC3)CC2)c2ccccc21 (stereo not drawn) |  | conscious Sprague-Dawley rat | intravenous bolus, 100 nmol/kg |  | peak decrease in mean arterial pressure | -57 ± 15 mmHg |
